Results of several laboratories.
Numbered parts are unrelated; each lists some results of a single study. Several values in a cell are separate wells, animals, samples, runs or records.
Chain of UniProt P10721 (whole entry, unmodified, looked up): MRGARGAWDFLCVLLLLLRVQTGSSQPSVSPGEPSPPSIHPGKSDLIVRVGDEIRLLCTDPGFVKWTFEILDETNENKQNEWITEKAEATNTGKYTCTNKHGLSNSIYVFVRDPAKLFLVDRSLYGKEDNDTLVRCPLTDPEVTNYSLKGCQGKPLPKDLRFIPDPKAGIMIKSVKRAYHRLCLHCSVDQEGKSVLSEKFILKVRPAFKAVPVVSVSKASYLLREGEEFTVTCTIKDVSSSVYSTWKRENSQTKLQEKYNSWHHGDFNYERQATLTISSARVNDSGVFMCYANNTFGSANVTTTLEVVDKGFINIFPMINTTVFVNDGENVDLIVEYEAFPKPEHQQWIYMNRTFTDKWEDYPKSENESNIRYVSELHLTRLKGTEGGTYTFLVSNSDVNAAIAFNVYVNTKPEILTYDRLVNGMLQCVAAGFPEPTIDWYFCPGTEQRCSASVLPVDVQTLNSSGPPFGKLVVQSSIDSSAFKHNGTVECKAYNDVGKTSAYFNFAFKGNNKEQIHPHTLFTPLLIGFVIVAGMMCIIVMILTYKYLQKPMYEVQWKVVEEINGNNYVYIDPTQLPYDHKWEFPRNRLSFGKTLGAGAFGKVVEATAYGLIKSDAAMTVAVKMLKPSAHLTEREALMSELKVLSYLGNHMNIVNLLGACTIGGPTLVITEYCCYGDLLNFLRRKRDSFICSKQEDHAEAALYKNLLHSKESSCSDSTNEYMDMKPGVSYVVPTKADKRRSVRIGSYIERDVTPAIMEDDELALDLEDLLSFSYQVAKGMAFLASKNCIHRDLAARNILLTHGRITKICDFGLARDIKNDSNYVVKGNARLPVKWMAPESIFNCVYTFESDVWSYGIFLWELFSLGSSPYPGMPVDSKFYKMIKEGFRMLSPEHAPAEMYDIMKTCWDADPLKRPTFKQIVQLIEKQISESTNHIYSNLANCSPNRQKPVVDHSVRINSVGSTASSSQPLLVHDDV
Chain of UniProt Q07912 (whole entry, looked up): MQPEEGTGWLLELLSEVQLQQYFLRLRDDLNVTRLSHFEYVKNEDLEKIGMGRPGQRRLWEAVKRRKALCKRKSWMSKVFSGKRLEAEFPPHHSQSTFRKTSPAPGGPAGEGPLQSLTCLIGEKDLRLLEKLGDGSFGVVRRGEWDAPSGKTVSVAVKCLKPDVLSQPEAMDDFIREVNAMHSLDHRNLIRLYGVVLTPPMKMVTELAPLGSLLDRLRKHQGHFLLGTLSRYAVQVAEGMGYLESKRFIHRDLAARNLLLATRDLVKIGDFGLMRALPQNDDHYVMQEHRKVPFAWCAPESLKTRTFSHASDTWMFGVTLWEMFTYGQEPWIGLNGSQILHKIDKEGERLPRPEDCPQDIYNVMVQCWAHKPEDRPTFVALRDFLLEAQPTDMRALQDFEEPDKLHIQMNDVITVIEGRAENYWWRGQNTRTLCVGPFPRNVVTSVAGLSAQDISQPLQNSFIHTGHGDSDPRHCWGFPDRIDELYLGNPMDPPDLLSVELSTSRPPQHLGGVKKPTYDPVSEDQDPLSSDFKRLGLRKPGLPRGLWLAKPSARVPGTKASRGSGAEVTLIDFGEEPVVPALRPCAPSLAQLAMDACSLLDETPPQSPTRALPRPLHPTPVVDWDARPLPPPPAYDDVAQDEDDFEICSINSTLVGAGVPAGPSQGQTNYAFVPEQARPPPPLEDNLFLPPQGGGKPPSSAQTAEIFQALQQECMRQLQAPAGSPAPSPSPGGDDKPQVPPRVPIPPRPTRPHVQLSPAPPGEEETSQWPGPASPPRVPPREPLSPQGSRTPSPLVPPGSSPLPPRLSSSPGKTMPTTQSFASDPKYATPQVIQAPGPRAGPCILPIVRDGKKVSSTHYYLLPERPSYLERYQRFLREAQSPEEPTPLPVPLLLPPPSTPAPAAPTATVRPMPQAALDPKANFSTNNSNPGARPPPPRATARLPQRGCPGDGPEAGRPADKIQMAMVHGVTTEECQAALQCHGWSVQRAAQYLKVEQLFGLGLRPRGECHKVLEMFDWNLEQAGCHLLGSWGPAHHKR
Chain of UniProt P51812 (whole entry, looked up): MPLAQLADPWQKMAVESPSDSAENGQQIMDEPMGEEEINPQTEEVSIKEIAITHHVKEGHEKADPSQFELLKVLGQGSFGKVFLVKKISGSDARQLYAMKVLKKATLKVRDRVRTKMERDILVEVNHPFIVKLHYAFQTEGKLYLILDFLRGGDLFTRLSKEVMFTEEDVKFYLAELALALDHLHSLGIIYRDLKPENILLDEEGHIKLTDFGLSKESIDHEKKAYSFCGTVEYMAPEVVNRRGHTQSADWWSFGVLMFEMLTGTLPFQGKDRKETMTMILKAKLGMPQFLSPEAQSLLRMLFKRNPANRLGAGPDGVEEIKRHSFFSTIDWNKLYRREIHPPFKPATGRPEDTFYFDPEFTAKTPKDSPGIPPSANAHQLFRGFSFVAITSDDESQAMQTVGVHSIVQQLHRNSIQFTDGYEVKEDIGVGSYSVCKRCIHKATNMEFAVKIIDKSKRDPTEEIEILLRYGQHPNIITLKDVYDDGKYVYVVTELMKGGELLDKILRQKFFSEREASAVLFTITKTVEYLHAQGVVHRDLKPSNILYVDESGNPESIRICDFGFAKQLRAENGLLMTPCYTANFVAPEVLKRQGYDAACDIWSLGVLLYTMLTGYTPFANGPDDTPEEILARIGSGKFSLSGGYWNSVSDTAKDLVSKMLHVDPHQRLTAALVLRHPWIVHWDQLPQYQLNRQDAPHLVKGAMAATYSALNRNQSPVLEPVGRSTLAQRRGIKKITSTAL
Chain of UniProt P21802 (whole entry, looked up): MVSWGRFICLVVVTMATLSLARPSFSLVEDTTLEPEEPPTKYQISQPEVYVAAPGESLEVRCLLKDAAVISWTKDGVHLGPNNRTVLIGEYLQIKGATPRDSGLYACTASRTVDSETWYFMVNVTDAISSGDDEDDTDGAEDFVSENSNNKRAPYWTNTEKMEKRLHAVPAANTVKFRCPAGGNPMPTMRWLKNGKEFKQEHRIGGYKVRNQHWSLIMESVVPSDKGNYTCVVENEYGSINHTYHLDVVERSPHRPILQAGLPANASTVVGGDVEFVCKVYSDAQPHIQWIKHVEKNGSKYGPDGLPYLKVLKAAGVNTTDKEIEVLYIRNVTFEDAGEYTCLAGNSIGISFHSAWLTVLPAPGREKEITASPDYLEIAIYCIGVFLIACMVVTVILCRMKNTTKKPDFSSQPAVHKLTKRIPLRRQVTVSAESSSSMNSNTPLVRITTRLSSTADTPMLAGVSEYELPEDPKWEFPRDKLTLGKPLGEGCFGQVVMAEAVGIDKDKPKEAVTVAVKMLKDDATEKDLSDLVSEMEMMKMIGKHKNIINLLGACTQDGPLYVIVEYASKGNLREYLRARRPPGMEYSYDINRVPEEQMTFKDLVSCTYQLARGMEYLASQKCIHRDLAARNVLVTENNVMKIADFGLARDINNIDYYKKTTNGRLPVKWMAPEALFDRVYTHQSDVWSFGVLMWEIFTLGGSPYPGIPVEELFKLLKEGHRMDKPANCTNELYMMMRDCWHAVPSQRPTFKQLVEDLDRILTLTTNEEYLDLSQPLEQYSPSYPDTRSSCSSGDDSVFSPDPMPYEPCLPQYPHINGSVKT
Chain of UniProt P36894 (whole entry, looked up): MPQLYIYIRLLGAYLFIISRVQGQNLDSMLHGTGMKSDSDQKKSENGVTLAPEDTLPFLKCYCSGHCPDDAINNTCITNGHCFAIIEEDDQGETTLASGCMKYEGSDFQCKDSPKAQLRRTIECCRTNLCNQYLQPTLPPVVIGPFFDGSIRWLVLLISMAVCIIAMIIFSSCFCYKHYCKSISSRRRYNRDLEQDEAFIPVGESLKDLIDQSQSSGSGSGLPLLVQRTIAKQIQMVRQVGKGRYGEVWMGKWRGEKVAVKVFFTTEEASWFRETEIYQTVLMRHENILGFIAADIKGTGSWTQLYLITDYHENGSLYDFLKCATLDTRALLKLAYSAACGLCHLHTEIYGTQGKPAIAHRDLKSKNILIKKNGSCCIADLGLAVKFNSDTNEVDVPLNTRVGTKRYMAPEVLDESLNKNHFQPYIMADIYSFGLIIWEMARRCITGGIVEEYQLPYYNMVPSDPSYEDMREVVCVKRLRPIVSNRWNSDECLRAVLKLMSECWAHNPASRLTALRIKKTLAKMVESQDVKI
Chain of UniProt Q8IY84 (whole entry, looked up): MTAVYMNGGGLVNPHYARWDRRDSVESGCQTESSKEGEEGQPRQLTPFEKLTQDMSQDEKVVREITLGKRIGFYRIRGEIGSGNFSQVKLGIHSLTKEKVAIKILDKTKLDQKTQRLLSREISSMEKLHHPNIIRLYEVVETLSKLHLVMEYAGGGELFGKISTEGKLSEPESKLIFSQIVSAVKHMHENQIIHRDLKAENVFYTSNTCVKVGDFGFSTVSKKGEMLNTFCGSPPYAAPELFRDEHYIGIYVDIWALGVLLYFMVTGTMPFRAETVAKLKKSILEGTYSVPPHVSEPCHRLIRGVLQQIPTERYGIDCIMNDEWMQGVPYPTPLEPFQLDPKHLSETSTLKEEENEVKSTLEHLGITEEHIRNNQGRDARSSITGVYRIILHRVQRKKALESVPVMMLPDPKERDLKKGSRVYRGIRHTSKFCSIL

Set 1
Target: Calcium/calmodulin-dependent protein kinase type II subunit alpha (CAMK2A, Homo sapiens, UniProt Q9UQM7)
Chain of UniProt Q9UQM7 (whole entry, looked up): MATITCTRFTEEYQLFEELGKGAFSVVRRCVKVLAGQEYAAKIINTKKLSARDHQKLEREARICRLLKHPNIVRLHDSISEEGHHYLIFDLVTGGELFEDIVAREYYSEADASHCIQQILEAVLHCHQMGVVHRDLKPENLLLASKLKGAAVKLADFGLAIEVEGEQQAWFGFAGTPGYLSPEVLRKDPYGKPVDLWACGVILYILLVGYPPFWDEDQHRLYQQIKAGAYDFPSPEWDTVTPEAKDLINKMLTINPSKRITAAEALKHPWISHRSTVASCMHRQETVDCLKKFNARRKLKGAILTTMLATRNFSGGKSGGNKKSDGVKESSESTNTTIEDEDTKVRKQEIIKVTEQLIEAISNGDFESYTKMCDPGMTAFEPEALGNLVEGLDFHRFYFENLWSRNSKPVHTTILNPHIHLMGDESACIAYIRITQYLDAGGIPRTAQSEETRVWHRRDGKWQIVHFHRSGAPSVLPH
Effect on: enzyme activity
Mode: inhibitor
Tested at: 10 µM
Quantity: inhibition
N[C@@H](CSCC(=O)O)C(=O)O: -4%
COC(=O)/C=C/c1ccc(O)c(O)c1: 23%
CCCCC1(CCCC)CN(c2ccccc2)c2cc(SC)c(OCC(=O)N[C@@H](C(=O)N[C@@H](CC)C(=O)O)c3ccc(O)cc3)cc2S(=O)(=O)N1: -3%
O=c1[nH]cnc2c1cnn2[C@@H]1O[C@H](CO)[C@@H](O)[C@H]1O: 23%
COc1cccc(CCc2cc(O)cc(OC)c2)c1: -42%
COc1cc(O[C@@H]2O[C@H](CO)[C@@H](O)[C@H](O)[C@H]2O)c2c(c1)C(=O)c1cc(C)cc(O)c1C2=O: 0%
CCCCN(CCCC)CCC(O)c1cc2c(Cl)cc(Cl)cc2c2cc(C(F)(F)F)ccc12 (stereo not shown): -1%
COc1ccc(-c2oc3c4c(cc(O)c3c(=O)c2O)OC(C)(C)CC4)cc1: -13%

Set 2
Structure (SMILES): O=C(Nc1cnn(-c2csc(C(=O)NC3COC3)c2)c1)Nc1c(F)cccc1Cl
Tested at: 5 µM
Quantity: remaining activity
Tyrosine-protein kinase Lyn, isoform B (LYN, Homo sapiens, UniProt P07948); enzyme activity; reference: untreated control: 87.3%
LIM domain kinase 2 (LIMK2, Homo sapiens, UniProt P53671); enzyme activity; reference: untreated control: 93.1%
cGMP-dependent protein kinase 1 (PRKG1, Homo sapiens, UniProt Q13976); kinase activity, kinase panel profiling: 93.2%
Bone morphogenetic protein receptor type-1A (BMPR1A, Homo sapiens, UniProt P36894); enzyme activity; reference: untreated control: 100%
Serine/threonine-protein kinase WNK1 (WNK1, Homo sapiens, UniProt Q9H4A3); enzyme activity; reference: untreated control: 92.9%
Bone morphogenetic protein receptor type-1B (BMPR1B, Homo sapiens, UniProt O00238); enzyme activity; reference: untreated control: 111%
Serine/threonine-protein kinase NIM1 (NIM1K, Homo sapiens, UniProt Q8IY84); enzyme activity; reference: untreated control: 69.8%

Set 3
SMILES: CNC(=O)Nc1ccc2c(c1)CC[C@@]21OC(=O)N(CC(=O)N(Cc2ccc(F)cc2)[C@@H](C)C(F)(F)F)C1=O
Method: competition with immobilised ligand
Tested at: 1 µM
Quantity: remaining binding
Mast/stem cell growth factor receptor Kit (KIT, Homo sapiens, UniProt P10721, T670I/V559D); cell-free assay: 93%
Ephrin type-B receptor 1 (EPHB1, Homo sapiens, UniProt P54762); cell-free assay: 97%
Myosin light chain kinase, smooth muscle (MYLK, Homo sapiens, UniProt Q15746); cell-free assay: 66%
Ribosomal protein S6 kinase alpha-3, N-terminal kinase domain (RPS6KA3, Homo sapiens, UniProt P51812); cell-free assay: 88%
BDNF/NT-3 growth factors receptor (NTRK2, Homo sapiens, UniProt Q16620); cell-free assay: 95%
Fibroblast growth factor receptor 2 (FGFR2, Homo sapiens, UniProt P21802); cell-free assay: 88%
Serine/threonine-protein kinase ICK (CILK1, Homo sapiens, UniProt Q9UPZ9); binding: 72%
Epidermal growth factor receptor (EGFR, Homo sapiens, UniProt P00533, G719S); cell-free assay: 95%
Mast/stem cell growth factor receptor Kit (KIT, Homo sapiens, UniProt P10721, D816V); cell-free assay: 70%
Ephrin type-A receptor 5 (EPHA5, Homo sapiens, UniProt P54756); cell-free assay: 96%
Dual specificity tyrosine-phosphorylation-regulated kinase 1A (DYRK1A, Homo sapiens, UniProt Q13627); cell-free assay: 64%
Citron Rho-interacting kinase (CIT, Homo sapiens, UniProt O14578); cell-free assay: 92%
Serine/threonine-protein kinase DCLK3 (DCLK3, Homo sapiens, UniProt Q9C098); cell-free assay: 83%
Epidermal growth factor receptor (EGFR, Homo sapiens, UniProt P00533, del752-759); cell-free assay: 63%
Activated CDC42 kinase 1 (TNK2, Homo sapiens, UniProt Q07912); cell-free assay: 90%

Single results of other studies
COc1ccc(-c2c(Nc3ccccn3)[nH]c3c(C4=CCCCC4)c(-c4ccccc4)nn3c2=O)cc1  swing over dosing interval (human, plasma; oral, 200 mg twice daily; reference: (Cmax-Ctau) over Ctau): 0.535 and 0.285 and 0.43

Some of these lines once more (set 1):
COC(=O)/C=C/c1ccc(O)c(O)c1: 23%
CCCCC1(CCCC)CN(c2ccccc2)c2cc(SC)c(OCC(=O)N[C@@H](C(=O)N[C@@H](CC)C(=O)O)c3ccc(O)cc3)cc2S(=O)(=O)N1: -3%
O=c1[nH]cnc2c1cnn2[C@@H]1O[C@H](CO)[C@@H](O)[C@H]1O: 23%
COc1cccc(CCc2cc(O)cc(OC)c2)c1: -42%
